Experimental data gathered from unrelated publications.
Parts stem from different laboratories: compare values within a part only. Changes are numbered by the printed parent chain.

Block 1
Target: RING finger protein unkempt homolog, zinc fingers 1-6, GST-SBP tag (UNK, Homo sapiens, UniProt Q9C0B0, residues 30-357)
Method: RNA Bind-n-Seq
Molecule type: RNA
Medium: in vitro
Concentration: not given
Notes: RNA with constant flanks, human and mouse sites, ends assumed
Reference: input RNA pool
Reading: higher = stronger binding
All sequences stand within: GGGAGUUCUACAGUCCGACGAUC … CAACAGAGGAUUGAGCAUCA
Residues (chain): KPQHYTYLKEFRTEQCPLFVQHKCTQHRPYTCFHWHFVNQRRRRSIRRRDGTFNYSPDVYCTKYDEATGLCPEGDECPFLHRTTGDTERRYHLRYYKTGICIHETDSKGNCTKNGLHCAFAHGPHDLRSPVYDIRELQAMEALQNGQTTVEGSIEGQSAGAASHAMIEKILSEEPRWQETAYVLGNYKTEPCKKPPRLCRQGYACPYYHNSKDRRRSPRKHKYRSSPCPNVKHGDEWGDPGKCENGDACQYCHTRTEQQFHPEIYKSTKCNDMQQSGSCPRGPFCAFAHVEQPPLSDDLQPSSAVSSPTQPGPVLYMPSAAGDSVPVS
Sequence | bound/input enrichment
UGGGACUUGGCUAGUGGCAAAUUAAAACUGUCAUUGACUGGGCAUAUUAGUACUGUGCGGGGCGUGAUAGUAAGCACAAGGAGCCCAUAUCUGUUCUCUUGUGGAGAAGACAAACAAGUG | 0.533 ratio
AUUUGGGGCAGUACCAGUCCAUACCAGCUGCGAUUUGUGAGUGGACCUGUGGUAAGAAGAAUAGAAAAGGCUCUCAGAGAUAAGGUUUUUUACAUGUGUAACAAUCCCAAGAUUUCCUAG | 0.888 ratio
AGCCUCAACACGCUGGAGCUUUUUGACAACCGGCUGACCACGGUGCCCACGCAGGCCUUCGAGUACCUGUCCAAGCUGCGGGAGCUCUGGCUGCGGAACAACCCCAUCGAGAGCAUCCCC | 0.0516 ratio
GAAUUCCUAACUUGGUGUCAGUUUCUAAGGCCUUUAGUGUCUUGGAUAUUCUACUGUGUGUUUAGAACUGUUAAGUGUCACCUUAUUCUGGGAUUAUUGUCCUAGAAAUAUUCUGUUCUU | 0.0626 ratio
GCCUCCCCGUCCACCUCUUCUGCUCAUACCCCUUCUCAGAUCGCUUCUCCUCUCCAAGAAGAUACUCUAUCCGAUGUUGCUCCUCCCAGAGAUAUGUCCUUAUAUGCCUCACUCACCUCU | 1.25 ratio
GAGCAGCGGCAGUUCUCACUACAGCGCCAGGACGAGUCCGGUUCGUGUUCGUCCGCGGAGAUCUCUCUCAUCUCGCUCGGCUGCGGGAAAUCGGGCUGAAGCGACUGAGUCCGCGAUGGA | 0.0805 ratio
UAAAAGAAAUAGCUGUUAUUAAUGCCUUUUUGUUUUCCAUUGAGUGUACACUACUGAAUAAGUGUAGGAGUUUUAUGUUUACCAUGUGAGUCCUGCAACACUAAAGAUAUUUUGAAUAUC | 0.623 ratio

Block 2
Target: ABI1, truncated, D143A, DHFR fusion (Arabidopsis thaliana)
Method: DHFR PCA, deep sequencing
Medium: yeast
Notes: methotrexate growth selection, single substitutions
With: (+)-ABA 17 µM
Reference: wild-type fitted maximum
Reading: higher = stronger binding
Starting sequence: PYL1, truncated, DHFR fusion (Arabidopsis thaliana); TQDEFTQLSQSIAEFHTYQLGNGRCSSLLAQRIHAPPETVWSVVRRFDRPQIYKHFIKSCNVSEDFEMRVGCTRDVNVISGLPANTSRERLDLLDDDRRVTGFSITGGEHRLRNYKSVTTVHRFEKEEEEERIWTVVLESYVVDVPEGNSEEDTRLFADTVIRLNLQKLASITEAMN; partner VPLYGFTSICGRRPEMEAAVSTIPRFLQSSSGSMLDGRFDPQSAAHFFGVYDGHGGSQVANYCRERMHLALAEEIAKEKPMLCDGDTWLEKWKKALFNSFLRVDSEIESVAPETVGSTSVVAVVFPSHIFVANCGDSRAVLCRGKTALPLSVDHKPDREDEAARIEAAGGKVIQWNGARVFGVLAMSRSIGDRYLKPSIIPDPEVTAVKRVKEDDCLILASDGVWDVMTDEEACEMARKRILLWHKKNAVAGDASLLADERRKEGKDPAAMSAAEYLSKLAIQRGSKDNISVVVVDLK
Change | relative binding score [%]
L91G | -7.11
F5N | 60.2
S150T | 92.5
D48R | 5.12
L28M | 82.5
R88M | 72.8
K116N | 51.3
V137S | -5.31
A84M | 24.4
P36Q | 65.1
A175G | 89.7

Block 3
Target: Interferon regulatory factor 5, full length, phosphomimetic (IRF5, Homo sapiens, UniProt Q13568-2, residues 1-514, S451D/S453D/S456D/S462D)
Method: protein-binding microarray
Molecule type: double-stranded DNA, one strand shown
Medium: in vitro
Concentration: 940 nM top
Notes: 60-bp whole probe
With: salmon DNA 0.4 mg/ml
Reference: random background probes
Reading: higher = stronger binding
All sequences stand within: GCCTAGCAC … GTCTTGATTCGCTTGACGCTGCTG
Sequence | fitted relative affinity
GACGGTTTCGGACTGGGGGCGTGCTAG | 8.16 z-score
TTAGGTTTCGGGTTTCGGGTAGTGCTA | 10.9 z-score
TTAGGACTGCTTATTCTTTAGTGCTAG | -0.0115 z-score
GTAGGACTGGACTTTCGGTTAGTGCTA | 2.32 z-score
TTAGAACTGGGGTATCGATGAGTGCTA | 1.87 z-score
TTAGGTATCGACTGTCGGTTAGTGCTA | 6.03 z-score
TCTAACTTCCCAATGGTCTTGTGCTAG | 0.442 z-score
TTCAGTTTTCCTATGTCATTGTGCTAG | 1.6 z-score
TCACCTATGTCATTTACACTGTGCTAG | 0.414 z-score
ATAGATATCGGGACTGGATTAGTGCTA | 0.0384 z-score
TCAAGTCTTGTTTTACAACTGTGCTAG | 0.199 z-score
GACGGTTTCGGAATGGGGACGTGCTAG | 7.7 z-score
AGACCTTCACCTCTCTGTCCGTGCTAG | 0.858 z-score
TTAGGTTTCCTTCTTCTTTAGTGCTAG | 2.17 z-score
GACGAACTGGGGCTTCGAGACGTGCTA | -0.0116 z-score
TTAGGGTTCGGGTATCGGTTAGTGCTA | 3.04 z-score
GACGGTATCGGTATCGGGTCGTGCTAG | 10.3 z-score

Block 4
Target: CCNF, cyclin fold, Cln2 fusion (human)
Method: yeast growth competition, sequencing
Medium: yeast
Notes: strong parent motif
Reference: not given
Reading: higher = stronger binding
Starting sequence: PKMYT1 docking peptide (human); SFEPRNLLSLFED
Change | normalised enrichment score
S9F | 2.65
S1L | 2.04
D13E | 0.721
E12A | 0.219
L7A | -0.893
L7N | -0.628
E3K | 3.52
E12T | 0.734
E12V | 0.855
S1D | 0.732

Block 5
Target: Ras GTPase-activating protein-binding protein 1, full length (G3BP1, Homo sapiens, UniProt Q13283)
Sequence of UniProt Q13283 (whole entry, looked up): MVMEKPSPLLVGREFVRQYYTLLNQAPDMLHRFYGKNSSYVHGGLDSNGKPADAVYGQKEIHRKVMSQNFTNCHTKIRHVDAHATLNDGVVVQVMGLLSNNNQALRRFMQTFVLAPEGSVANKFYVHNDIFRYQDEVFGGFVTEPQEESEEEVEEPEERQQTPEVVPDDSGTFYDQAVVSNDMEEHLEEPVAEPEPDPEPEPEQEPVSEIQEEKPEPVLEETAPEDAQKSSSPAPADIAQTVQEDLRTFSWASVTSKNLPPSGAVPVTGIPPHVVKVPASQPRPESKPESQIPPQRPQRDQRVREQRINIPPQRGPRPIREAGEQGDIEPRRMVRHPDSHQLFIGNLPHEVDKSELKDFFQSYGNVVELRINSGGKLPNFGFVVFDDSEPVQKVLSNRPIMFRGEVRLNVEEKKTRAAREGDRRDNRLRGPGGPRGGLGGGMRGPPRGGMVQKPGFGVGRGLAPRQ
Method: RNA Bind-n-Seq
Molecule type: RNA
Medium: in vitro
Concentration: 200 nM
Notes: whole 134-nt RNA, ends assumed
With: 150 mM LiCl
Reference: input library
Reading: higher = stronger binding
All molecules: 7-deaza-guanosine replaces G
All sequences stand within: GGGAGUUCUACAGUCCGACGAUC … UGGAAUUCUCGGGUGUCAAGG
Sequence | log2 enrichment
ACCAUGCAGGUGGGCAUCUUUGGGAAGUGGGGCAAGGGGGGGAUAGGGAGGGGGGUAACACUUUGGGAACAGGAAAUCCCAGGUCGUUUC | 0.203
CUCAAGUCCUGUGCUACACAUCGUAUGUACCGAAUCGGGUUGGUUGGGUUGGGGAAAGUAUUAUGUUACGCCGUUCGGAUCUGCACUUCC | -0.342
UAACUUUAGAGGAGGAUCUGUUGGAUAUGGCAGUGGACGUGGAUUUGGGGAUGGCUAUAAUGGGUAUGGAGGAGGACCUGGAGGUGGCAA | 0.114
UCAAGUCCUGUGCUACACAUCGUAUGUACCGAAUCGGGGCCCGGGCCCGGCCCGGAAAGUAUUAUGUUACGCCGUUCGGAUCUGCACUUC | -0.366
AAGUCCUGUGCUACACAUCGUAUGUACCGAAUCGGAAAAAGGAAAAAGGGAAAAAGGAAAGUAUUAUGUUACGCCGUUCGGAUCUGCACU | -0.471
UCAAGUCCUGUGCUACACAUCGUAUGUACCGAAUCGGAAAAAAAGGUUUGGUGGAAAGUAUUAUGUUACGCCGUUCGGAUCUGCACUUCC | -0.931
CCUCAAGUCCUGUGCUACACAUCGUAUGUACCGAAUCGGGGCGGGGCGGCGGAAAGUAUUAUGUUACGCCGUUCGGAUCUGCACUUCCAG | -0.883
UCAAGUCCUGUGCUACACAUCGUAUGUACCGAAUCGGGUUUGGUUUGGGUUUGGGAAAGUAUUAUGUUACGCCGUUCGGAUCUGCACUUC | -1.45
CAAGUCCUGUGCUACACAUCGUAUGUACCGAAUCGGCCCCGGCCCCGGGGCCCCGGAAAGUAUUAUGUUACGCCGUUCGGAUCUGCACUU | -2.22

For quick reference, copied from above (block 2):
Change | relative binding score [%]
S150T | 92.5
D48R | 5.12
L28M | 82.5
